Results from different studies.
Each numbered part is a random draw from the data of one study; scales do not carry over between parts.

Series 1
Target: Interferon regulatory factor 3, full length, phosphomimetic (IRF3, Homo sapiens, UniProt Q14653, residues 1-427, S386D/S396D/S398D/S402D/T404D/S405D)
Method: protein-binding microarray
Molecule type: double-stranded DNA, one strand shown
Sample: in vitro
Concentration: 2540 nM top
Setting: 60-bp whole probe
Together with: salmon DNA 0.4 mg/ml
Baseline: random background probes
Direction: higher = stronger binding
Constant ends, left off below: GCCTAGCAC … GTCTTGATTCGCTTGACGCTGCTG
Target sequence (chain): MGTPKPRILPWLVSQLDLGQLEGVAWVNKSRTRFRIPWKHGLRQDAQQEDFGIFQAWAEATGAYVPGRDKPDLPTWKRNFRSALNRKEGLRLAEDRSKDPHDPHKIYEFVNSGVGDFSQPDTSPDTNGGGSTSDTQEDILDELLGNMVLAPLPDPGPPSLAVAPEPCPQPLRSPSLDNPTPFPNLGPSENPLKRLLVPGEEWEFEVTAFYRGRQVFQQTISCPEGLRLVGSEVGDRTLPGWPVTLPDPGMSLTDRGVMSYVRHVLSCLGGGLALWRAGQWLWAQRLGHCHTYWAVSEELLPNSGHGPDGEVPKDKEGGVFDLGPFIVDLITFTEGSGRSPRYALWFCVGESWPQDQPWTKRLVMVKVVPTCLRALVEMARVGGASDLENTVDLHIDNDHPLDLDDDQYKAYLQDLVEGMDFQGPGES
| Sequence | fitted relative affinity [z-score] |
| --- | --- |
| TTAGGTCTCCTTTTCCTATAGTGCTAG | 5.17 |
| TTAGGTTTCGGGTAGCGGTTAGTGCTA | 3.35 |
| GACGGGCTCGGTATCGGGACGTGCTAG | 0.327 |
| GACTGTATCCTTATCCTGACGTGCTAG | 4.73 |
| GCCGGTATCGACACTGGGGACGTGCTA | 0.976 |
| GACGGGTTCGGTCTCGGGACGTGCTAG | 1.47 |
| TACGGTCTCGGACTGGGGACGTGCTAG | -0.0774 |
| GACGGTATCGGGACTGGGAACGTGCTA | 1.85 |
| TAAGATTTCAGTATCGATTAGTGCTAG | 2.65 |
| GACGGTCTCCTCATCCTGACGTGCTAG | 0.746 |
| TTAGGTCTCGGTCTTGGTTAGTGCTAG | 0.662 |
| TAACATATTCTCTTCTTGCAGTGCTAG | 1.25 |
| GACGGTCTACTACTGCTGACGTGCTAG | -0.119 |
| TCAATCCTTCATTTGAAACTGTGCTAG | 0.485 |
| AACGGTATCGGGTTTCGGGACGTGCTA | 3.05 |
| TCAGCTTTCTTTATGTAACTGTGCTAG | 1.44 |
| TTAAATCTCAGTATCGATTAGTGCTAG | 1.15 |
| TAATTTTTACTTTCTGAATGGTGCTAG | 3.71 |
| CTAGGACTGGGTTTCGGTTAGTGCTAG | 3.03 |

Series 2
Target: Histone acetyltransferase KAT6A, both winged helices, GST fusion (KAT6A, Homo sapiens, UniProt Q92794, residues 1-181)
Method: protein binding microarray
Molecule type: double-stranded DNA, one strand shown
Sample: in vitro
Concentration: not given
Setting: 8-mer, flanks averaged, mean of 2 arrays, mostly near background
Baseline: not given
Direction: higher = stronger binding
Residues (chain): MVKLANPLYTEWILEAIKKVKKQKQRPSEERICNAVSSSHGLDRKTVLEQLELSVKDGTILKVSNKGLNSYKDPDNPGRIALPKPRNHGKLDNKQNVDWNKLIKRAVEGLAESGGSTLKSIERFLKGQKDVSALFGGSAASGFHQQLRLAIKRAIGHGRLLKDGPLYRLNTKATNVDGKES
| Sequence | E-score |
| --- | --- |
| AGAACCTC | 0.0697 |
| ATAAGTGA | -0.191 |
| AGGAAACG | -0.0538 |
| ATTCAAAC | -0.0459 |
| AGAGATAA | -0.159 |
| CCCGGCCG | 0.351 |
| AAATTTCT | -0.169 |
| GAAAATCC | -0.096 |
| CGCGACCG | 0.317 |
| CCATTTGA | -0.0181 |
| CTGGCTTA | -0.297 |
| GGGTTACC | 0.137 |
| ATGGGAAG | -0.0601 |
| ATCGGCAA | 0.0605 |
| GAGCCTTA | -0.15 |
| CGCCCCAG | -0.0606 |
| ACCGCCAG | 0.0932 |
| GCAGAGGC | -0.0968 |
| GAGGCTCA | -0.0267 |
| GAAACGAA | -0.0843 |
| GATTGGGC | -0.0944 |
| CTAGCTAA | -0.113 |

Series 3
Target: Hepatocyte nuclear factor 3-alpha (Foxa1, Mus musculus, UniProt P35582, residues 1-468, full length assumed)
Method: EMSA with sequencing
Molecule type: double-stranded DNA, one strand shown
Sample: in vitro
Concentration: 10 and 20 nM
Setting: whole designed probe, mean of two concentrations, ends assumed
Baseline: negative control set to 0
Direction: higher = stronger binding
Constant ends, left off below: GTGAGCGGTGCCCATTGATGGGGAAC … TTTCACTGGGATCGTGGGGAC
Construct (chain): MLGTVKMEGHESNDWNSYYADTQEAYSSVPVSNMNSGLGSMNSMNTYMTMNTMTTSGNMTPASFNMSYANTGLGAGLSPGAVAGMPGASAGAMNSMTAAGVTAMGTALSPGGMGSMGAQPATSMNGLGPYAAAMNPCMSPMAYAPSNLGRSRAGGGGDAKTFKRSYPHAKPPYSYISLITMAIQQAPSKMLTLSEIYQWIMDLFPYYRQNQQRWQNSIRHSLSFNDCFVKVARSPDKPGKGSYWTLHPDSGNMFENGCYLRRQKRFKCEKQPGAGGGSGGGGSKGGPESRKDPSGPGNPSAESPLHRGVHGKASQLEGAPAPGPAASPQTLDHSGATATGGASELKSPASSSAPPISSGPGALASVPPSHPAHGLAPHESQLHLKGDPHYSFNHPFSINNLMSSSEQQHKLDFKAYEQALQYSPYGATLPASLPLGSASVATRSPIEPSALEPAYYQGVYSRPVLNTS
| Sequence | normalised bound fraction [ratio] |
| --- | --- |
| GAGTGAGTAAGTGAGTGTGTGTGTGTGTGTGTGTGTGTGTGTGTGTGTGTGTGTGCTGGAGGTATGGCAGCTACCTCTTGCACATAATATTTGTGTGTACATATGTATATATGTGTGTGTATATATATGTGTGTATGTGTATATATACGCACATATATGTGCGTGTATGTGTGTATATACACACGTATGTGTG | 0.31 |
| TGAAGTGGGAACCTGAGGGTCATCTGAGAATTTTCCCTACCCACCTGAATAGATTTCTAAAATCACCTTTCAGTTGCTTTTGCTGTCTTTCTAAGTAATCTAAGATATCATCTCCAAATAATAATTAATTGAACTGCTTTTCAATTGTATTCATTAAAATAATTATCTTTTTCTGGCTTATATGAAGTATTTC | -0.0282 |
| ATGTGGCTTTAGCTGTGTCCCAAAGATTTTGGTATGTGTTTTCTCTGTTTTCACTTATTTCAAAGAACTTTTAAATTTCTGCCTTGATATCATAGATTACTCAAAAGTTGTTGAGGAGCCAGTTGTTTAATTTCTATGCATTTCTGTGGTTTTGAGAGATCTTCTTGGTATTGTTTTCTGTTTTTATTCTATT | 0.0442 |
| AATATTTCAAACACTACGTACCCCAACTGACATTTGAGTAGCAGTTAAGTTCTTGGAACGCTGGTTACGTAACCCATTTTGATCTAGCTCATTGTAAACAGGATGAAATAGGGCAGTTAAAAGACTAATGGTCAGTGAAATCTACAACAGGAATGGAAAGAATTTTCCCCTTAAAAATTTGGAAATCCTTATT | -0.00895 |
| AATATTTCAAACACTACGTACCCCAACTGACATTTGAGTAGCAGTTAAGTTCTTGGAACGCTGCCATTTTGATCTGATACGTATCAGCTCATTGTAAACAGGATGAAATAGGGCAGTTAAAAGACTAATGGTCAGTGAAATCTACAACAGGAATGGAAAGAATTTTCCCCTTAAAAATTTGGAAATCCTTATT | 0.0168 |

Series 4
Target: RING finger protein unkempt homolog, zinc fingers 1-6, GST-SBP tag (UNK, Homo sapiens, UniProt Q9C0B0, residues 30-357)
Chain of UniProt Q9C0B0 (30-357, looked up): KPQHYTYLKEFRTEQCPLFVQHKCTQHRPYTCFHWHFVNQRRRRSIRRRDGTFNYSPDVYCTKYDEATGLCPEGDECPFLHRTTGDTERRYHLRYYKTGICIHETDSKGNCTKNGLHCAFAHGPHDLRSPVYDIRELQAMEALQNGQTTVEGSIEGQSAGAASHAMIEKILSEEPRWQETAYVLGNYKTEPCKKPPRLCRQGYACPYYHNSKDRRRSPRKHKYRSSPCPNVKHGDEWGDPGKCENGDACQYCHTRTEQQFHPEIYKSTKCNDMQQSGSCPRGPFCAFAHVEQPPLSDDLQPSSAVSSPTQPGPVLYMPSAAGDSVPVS
Method: RNA Bind-n-Seq
Molecule type: RNA
Sample: in vitro
Concentration: not given
Setting: RNA with constant flanks, human and mouse sites, ends assumed
Baseline: input RNA pool
Direction: higher = stronger binding
Constant ends, left off below: GGGAGUUCUACAGUCCGACGAUC … CAACAGAGGAUUGAGCAUCA
| Sequence | bound/input enrichment |
| --- | --- |
| UGCUACUCAAAUAUUUAUGAACAGAGAGGAAAUGAGGCCACAGAAGGGAGUGGACUACUUUUAAACAGCACUGGUGACCUAAUGAAGAAAAAUUAUUUACAUAAUUUCUGUAGUCAAGUU | 0.316 ratio |
| GGUGAAGGUGGGAGGGGAGGGAGGGAAGAACUAAGAGGGAAACUGAAAAAUGAAUUUAUCUUUCUUUAAAUGGAAGUCAGUUUGGUGGUUCAUGGCACCUAGUGUGAACAUCAGGGUGAG | 3.1 ratio |
| AAGGUAUUUGGAGGUACUGUGCACAAAAAAAGUGUCAGAGAAGAUGGAGUUUUCAACAUUAGUGUGGAUAAUACAUGUUCAUUAUUCAGGGGCCUUCAGAAGGAAGAAGUUGUUUUGCUU | 0.358 ratio |
| AGUAGCUCCGCCUGAAGAACUGUUUGCCAAUUCUGCUGAAGGAGAAUUCAGUGCACUCUGUAGCUAUCUAUCUUUACCCACAAAUUUGUUCCUGCUUUUCCAGGAAUAUUGGGAUACCAU | 0.375 ratio |
| AGUAUUGCUCAGUCACUAAAAGAAUUUGCAAGACUACUCAUUGCAGUAGAAGAAGAAAGGCGAAGACUGAUCCAAAACGCUAACGAUGUAUUAAUUGCACCACUUGAGAAAUUUCGAAAA | 0.176 ratio |
| AAAAGAAAUUUUUUAAAAAACCCCUCAGUUUAACAGAUUUUGCAAUCCAUCCAGCCUUGUGGUUUUAUGCCUGCUCUUAAGUGAACAUUGGCGUCGCUCAAAGAAGGCUCAAUGUUGAGC | 0.448 ratio |
| UAAAUGUUCCCGCUGUGUCCCUGGAUAUGGAAUAAGCAGGUAUAAAAAAUAUUUUAAUUAUAGUUUUGUUAUAAAUAUAACUUAUGAGAAAAAAAUUUGAUAGGAAUAAUACUGUAUAUU | 6.4 ratio |
| CUACCAACCAGACCAGGACUUAAUAAAGCACAACUUGUUGAGAUAGUUGGUUGCCACUUUAGGUCUAUUCCAGUGAAUGAAAAAGACACCUUAACAUAUUUCAUCUACUCAGUGAAGAAU | 0.19 ratio |

A few entries again (series 4):
| Sequence | bound/input enrichment |
| --- | --- |
| UGCUACUCAAAUAUUUAUGAACAGAGAGGAAAUGAGGCCACAGAAGGGAGUGGACUACUUUUAAACAGCACUGGUGACCUAAUGAAGAAAAAUUAUUUACAUAAUUUCUGUAGUCAAGUU | 0.316 ratio |
| GGUGAAGGUGGGAGGGGAGGGAGGGAAGAACUAAGAGGGAAACUGAAAAAUGAAUUUAUCUUUCUUUAAAUGGAAGUCAGUUUGGUGGUUCAUGGCACCUAGUGUGAACAUCAGGGUGAG | 3.1 ratio |
| AAGGUAUUUGGAGGUACUGUGCACAAAAAAAGUGUCAGAGAAGAUGGAGUUUUCAACAUUAGUGUGGAUAAUACAUGUUCAUUAUUCAGGGGCCUUCAGAAGGAAGAAGUUGUUUUGCUU | 0.358 ratio |
| AGUAGCUCCGCCUGAAGAACUGUUUGCCAAUUCUGCUGAAGGAGAAUUCAGUGCACUCUGUAGCUAUCUAUCUUUACCCACAAAUUUGUUCCUGCUUUUCCAGGAAUAUUGGGAUACCAU | 0.375 ratio |
| AGUAUUGCUCAGUCACUAAAAGAAUUUGCAAGACUACUCAUUGCAGUAGAAGAAGAAAGGCGAAGACUGAUCCAAAACGCUAACGAUGUAUUAAUUGCACCACUUGAGAAAUUUCGAAAA | 0.176 ratio |
| AAAAGAAAUUUUUUAAAAAACCCCUCAGUUUAACAGAUUUUGCAAUCCAUCCAGCCUUGUGGUUUUAUGCCUGCUCUUAAGUGAACAUUGGCGUCGCUCAAAGAAGGCUCAAUGUUGAGC | 0.448 ratio |
| UAAAUGUUCCCGCUGUGUCCCUGGAUAUGGAAUAAGCAGGUAUAAAAAAUAUUUUAAUUAUAGUUUUGUUAUAAAUAUAACUUAUGAGAAAAAAAUUUGAUAGGAAUAAUACUGUAUAUU | 6.4 ratio |
| CUACCAACCAGACCAGGACUUAAUAAAGCACAACUUGUUGAGAUAGUUGGUUGCCACUUUAGGUCUAUUCCAGUGAAUGAAAAAGACACCUUAACAUAUUUCAUCUACUCAGUGAAGAAU | 0.19 ratio |
